Results gathered from unrelated publications.
Lines come from different studies, so protocols differ. ± gives the spread as reported.

SMILES | assay | system | conditions | quantity | result
CC(=O)c1c(C)c2cnc(Nc3ccc(C4CCN(CCS(C)(=O)=O)CC4)cn3)nc2n(C2CCCC2)c1=O |  | human patients, plasma | oral, 100 mg twice daily, day 1 single dose, added: fulvestrant | mean residence time | 5.83 h
CC(C)(C)c1cc(-n2nc3ccccc3n2)c(O)c(C(C)(C)C)c1 | exposure assessment | human, age 16-21 years | foundation | mean daily dermal uptake | 0.96 ng/kg body weight/day
CCCC1CCC(C2CCC(c3ccc(F)c(F)c3)CC2)CC1 (centres unmarked) |  | human mother-newborn pairs, maternal serum |  | mean serum concentration | 0.33 ng/mL
Cc1cn([C@H]2C[C@H](N=[N+]=[N-])[C@@H](COP(=O)(O)O)O2)c(=O)[nH]c1=O | refers to: phosphorylated zidovudine metabolites | human, peripheral blood mononuclear cells | 600 mg zidovudine, single dose | mean residence time | 18.7 ± 12.9 h
CCC[C@H]1CC[C@H](c2ccc(-c3ccc(F)cc3)cc2)CC1 |  | human mother-newborn pairs, cord serum |  | mean serum concentration | 0.46 ng/mL
COc1cc(C(=O)NC2CCN(C)CC2)c(F)cc1Nc1ncc(C(F)(F)F)c(Oc2cccc3c2C(=O)N(C)C3)n1 |  | human patients, plasma | oral, 100 mg once daily repeated, geometric mean | mean residence time at steady state | 25.4 h
CC(C)(c1ccccc1)c1cc(-n2nc3ccccc3n2)c(O)c(C(C)(C)c2ccccc2)c1 | exposure assessment | human, age 6-11 years | sunscreen | mean daily dermal uptake | 0.5 ng/kg body weight/day
Cn1ncc(-c2nc(N[C@H]3CC[C@H](N)CC3)ncc2Cl)c1CC1CC1 |  | human patients | all dose levels | mean half-life | 28 h

For quick reference, copied from above:
SMILES | assay | system | conditions | quantity | result
Cc1cn([C@H]2C[C@H](N=[N+]=[N-])[C@@H](COP(=O)(O)O)O2)c(=O)[nH]c1=O | refers to: phosphorylated zidovudine metabolites | human, peripheral blood mononuclear cells | 600 mg zidovudine, single dose | mean residence time | 18.7 ± 12.9 h
